Published values of several laboratories.
A part holds a random share of what one study measured.

Set 1 — method: competition protein-binding microarray; form: double-stranded DNA, one strand shown; matrix: in vitro; tested at: 2 µM; added: Cbf1 competitor, 0.05 µM; reading: higher = stronger binding; quantity: fluorescence intensity
Target: Phosphate system positive regulatory protein PHO4, full length, GST-tagged (PHO4, Saccharomyces cerevisiae, UniProt P07270, residues 1-312)
Setting: whole 60-bp probe, lowest competitor level
Construct (chain): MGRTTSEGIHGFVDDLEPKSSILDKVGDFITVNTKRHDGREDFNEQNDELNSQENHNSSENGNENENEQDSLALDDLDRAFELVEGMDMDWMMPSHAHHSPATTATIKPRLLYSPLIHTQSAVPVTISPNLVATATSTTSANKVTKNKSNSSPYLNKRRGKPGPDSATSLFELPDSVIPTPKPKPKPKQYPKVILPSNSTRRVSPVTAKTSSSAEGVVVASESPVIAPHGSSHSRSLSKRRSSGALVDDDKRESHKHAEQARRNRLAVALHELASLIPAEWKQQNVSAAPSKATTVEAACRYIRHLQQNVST
Oligonucleotide = AAATTACTAAGTTGTATTGTGGGTGACGCCGTATGAGTCTTGATTCGCTTGACGCTGCTG; value = 4250 a.u.
Oligonucleotide = TTTGTTCCTTGGAACCACATGATTTACTCAACAAATGTCTTGATTCGCTTGACGCTGCTG; value = 6910 a.u.
Oligonucleotide = GCACTACCATGTTTGCACGTGTTGGTGTCCTCATCAGTCTTGATTCGCTTGACGCTGCTG; value = 17700 a.u.
Oligonucleotide = CGGCCGCTGGCAGAGCACATGCGCCGTACGTCCATAGTCTTGATTCGCTTGACGCTGCTG; value = 8410 a.u.

Set 2 — method: RNA Bind-n-Seq; form: RNA; matrix: in vitro; tested at: 20 nM; setting: 6-mer, flanks averaged, single round; added: 150 mM KCl; relative to: input library; reading: higher = stronger binding; quantity: 6-mer enrichment (R)
Target: TAR DNA-binding protein 43, full length, His tag (TARDBP, Homo sapiens, UniProt Q13148, residues 1-414)
Oligonucleotide = GUCCUG; value = 0.838
Oligonucleotide = UAGCCC; value = 0.648
Oligonucleotide = ACUUUG; value = 0.634
Oligonucleotide = CUCUUU; value = 0.612
Oligonucleotide = UUUAGA; value = 0.62
Oligonucleotide = UCAAAC; value = 0.585
Oligonucleotide = GUUGUC; value = 0.733

Set 3 — method: universal PBM; form: double-stranded DNA, one strand shown; matrix: in vitro; tested at: 600 nM; reading: higher = stronger binding; quantity: E-score
Target: Sal-like protein 4, full length isoform A (SALL4, Homo sapiens, UniProt Q9UJQ4, residues 1-1053)
UniProt Q9UJQ4, sequence (whole entry, looked up): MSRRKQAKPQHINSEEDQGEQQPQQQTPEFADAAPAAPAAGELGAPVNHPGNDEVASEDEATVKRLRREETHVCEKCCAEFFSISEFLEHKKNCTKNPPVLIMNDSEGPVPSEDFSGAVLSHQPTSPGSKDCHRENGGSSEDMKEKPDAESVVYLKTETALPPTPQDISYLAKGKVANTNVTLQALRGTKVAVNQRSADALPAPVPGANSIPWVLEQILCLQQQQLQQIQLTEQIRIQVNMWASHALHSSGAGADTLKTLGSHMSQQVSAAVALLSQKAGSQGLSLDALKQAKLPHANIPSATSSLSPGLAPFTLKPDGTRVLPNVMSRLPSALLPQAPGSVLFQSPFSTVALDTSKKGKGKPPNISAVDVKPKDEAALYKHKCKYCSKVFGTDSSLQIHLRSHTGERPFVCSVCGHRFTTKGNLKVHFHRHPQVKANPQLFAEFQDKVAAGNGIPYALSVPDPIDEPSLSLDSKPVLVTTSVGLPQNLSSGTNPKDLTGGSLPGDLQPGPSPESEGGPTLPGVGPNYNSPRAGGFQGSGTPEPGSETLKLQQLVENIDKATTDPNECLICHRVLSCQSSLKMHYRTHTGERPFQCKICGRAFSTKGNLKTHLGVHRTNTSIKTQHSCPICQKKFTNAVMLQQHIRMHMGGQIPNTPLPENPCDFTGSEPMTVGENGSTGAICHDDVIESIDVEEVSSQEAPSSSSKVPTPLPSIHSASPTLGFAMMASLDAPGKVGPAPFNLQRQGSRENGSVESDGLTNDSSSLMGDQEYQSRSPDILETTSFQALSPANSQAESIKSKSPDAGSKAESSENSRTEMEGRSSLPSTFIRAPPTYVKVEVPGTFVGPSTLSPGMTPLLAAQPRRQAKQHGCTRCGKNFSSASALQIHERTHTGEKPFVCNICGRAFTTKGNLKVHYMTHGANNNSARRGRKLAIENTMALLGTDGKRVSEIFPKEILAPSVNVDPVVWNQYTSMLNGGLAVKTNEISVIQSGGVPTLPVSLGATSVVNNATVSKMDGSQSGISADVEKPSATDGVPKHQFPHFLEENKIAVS
Setting: 8-mer, flanks averaged, mean of replicates
Oligonucleotide = ACTCGGTA; value = -0.00505
Oligonucleotide = GTACAAAA; value = 0.253
Oligonucleotide = TAAGCTAA; value = 0.222
Oligonucleotide = GGCACGCC; value = -0.441

Single results of other studies
Substance = PhoQ, residues 284 288 289 292 302 303 SVHLDV; target = PhoP, residues 12 14 15 18 19 LHTVM (Escherichia coli, UniProt P23836); assay = Sort-seq, item: YFP reporter; test system = E. coli; conditions = PhoQ-PhoP variant library, added: 10 µM Mg2+; how to read = relative to: high Mg2+ state, higher = stronger signaling; quantity = fold induction; value = 8.66

Excerpt of the above (set 2):
Oligonucleotide = GUUGUC; value = 0.733
Oligonucleotide = UAGCCC; value = 0.648
